# Measured values of several laboratories.
# Parts stem from different laboratories: compare values within a part only.
# Chain of UniProt P23443 (whole entry, looked up): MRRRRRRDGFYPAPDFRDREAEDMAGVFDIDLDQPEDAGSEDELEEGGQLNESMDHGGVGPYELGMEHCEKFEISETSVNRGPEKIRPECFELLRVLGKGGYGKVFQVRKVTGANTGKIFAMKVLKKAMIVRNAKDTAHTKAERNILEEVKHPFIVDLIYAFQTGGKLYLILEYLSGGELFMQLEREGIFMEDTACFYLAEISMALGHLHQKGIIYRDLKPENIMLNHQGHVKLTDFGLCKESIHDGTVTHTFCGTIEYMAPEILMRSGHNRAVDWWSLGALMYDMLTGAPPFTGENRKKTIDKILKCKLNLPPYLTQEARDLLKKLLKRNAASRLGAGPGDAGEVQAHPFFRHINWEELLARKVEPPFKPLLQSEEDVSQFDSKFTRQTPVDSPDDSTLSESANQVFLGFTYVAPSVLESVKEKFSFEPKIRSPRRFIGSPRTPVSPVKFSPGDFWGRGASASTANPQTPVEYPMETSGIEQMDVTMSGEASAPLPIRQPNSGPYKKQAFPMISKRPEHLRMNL
# Chain of UniProt Q13164 (whole entry, looked up): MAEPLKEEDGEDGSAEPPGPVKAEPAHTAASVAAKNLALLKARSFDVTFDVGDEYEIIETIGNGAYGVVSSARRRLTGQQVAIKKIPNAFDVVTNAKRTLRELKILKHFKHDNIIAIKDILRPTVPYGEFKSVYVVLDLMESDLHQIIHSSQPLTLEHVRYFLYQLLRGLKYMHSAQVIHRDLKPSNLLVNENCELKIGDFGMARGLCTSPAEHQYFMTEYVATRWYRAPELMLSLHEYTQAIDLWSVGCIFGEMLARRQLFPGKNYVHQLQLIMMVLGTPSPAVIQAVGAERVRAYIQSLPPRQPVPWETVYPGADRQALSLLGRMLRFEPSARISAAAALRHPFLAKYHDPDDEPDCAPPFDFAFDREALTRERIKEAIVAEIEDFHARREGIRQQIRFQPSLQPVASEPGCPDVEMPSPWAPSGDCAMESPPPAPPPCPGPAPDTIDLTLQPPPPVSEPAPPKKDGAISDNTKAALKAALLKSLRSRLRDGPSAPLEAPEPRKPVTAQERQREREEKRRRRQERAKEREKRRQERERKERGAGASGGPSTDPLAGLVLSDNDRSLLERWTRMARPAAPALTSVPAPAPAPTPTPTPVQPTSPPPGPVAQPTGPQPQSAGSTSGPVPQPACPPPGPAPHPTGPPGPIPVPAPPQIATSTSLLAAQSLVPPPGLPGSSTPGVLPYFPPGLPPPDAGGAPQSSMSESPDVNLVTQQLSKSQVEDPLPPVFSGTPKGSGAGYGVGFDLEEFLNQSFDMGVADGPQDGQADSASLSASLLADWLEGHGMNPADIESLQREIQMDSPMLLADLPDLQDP
# Chain of UniProt P53779 (whole entry, looked up): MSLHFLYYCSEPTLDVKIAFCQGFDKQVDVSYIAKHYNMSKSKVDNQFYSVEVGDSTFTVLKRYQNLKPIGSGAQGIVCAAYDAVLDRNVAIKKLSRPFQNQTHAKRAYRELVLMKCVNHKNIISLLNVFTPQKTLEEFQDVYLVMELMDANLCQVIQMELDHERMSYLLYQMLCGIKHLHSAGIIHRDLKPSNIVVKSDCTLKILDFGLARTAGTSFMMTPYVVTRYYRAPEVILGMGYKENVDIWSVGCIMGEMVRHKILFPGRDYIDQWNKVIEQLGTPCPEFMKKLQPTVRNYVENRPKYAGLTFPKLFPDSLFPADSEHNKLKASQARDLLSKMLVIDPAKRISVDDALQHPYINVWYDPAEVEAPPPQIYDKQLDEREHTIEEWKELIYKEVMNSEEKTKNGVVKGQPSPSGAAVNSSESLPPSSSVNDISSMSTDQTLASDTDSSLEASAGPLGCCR
# Chain of UniProt Q02779 (whole entry, looked up): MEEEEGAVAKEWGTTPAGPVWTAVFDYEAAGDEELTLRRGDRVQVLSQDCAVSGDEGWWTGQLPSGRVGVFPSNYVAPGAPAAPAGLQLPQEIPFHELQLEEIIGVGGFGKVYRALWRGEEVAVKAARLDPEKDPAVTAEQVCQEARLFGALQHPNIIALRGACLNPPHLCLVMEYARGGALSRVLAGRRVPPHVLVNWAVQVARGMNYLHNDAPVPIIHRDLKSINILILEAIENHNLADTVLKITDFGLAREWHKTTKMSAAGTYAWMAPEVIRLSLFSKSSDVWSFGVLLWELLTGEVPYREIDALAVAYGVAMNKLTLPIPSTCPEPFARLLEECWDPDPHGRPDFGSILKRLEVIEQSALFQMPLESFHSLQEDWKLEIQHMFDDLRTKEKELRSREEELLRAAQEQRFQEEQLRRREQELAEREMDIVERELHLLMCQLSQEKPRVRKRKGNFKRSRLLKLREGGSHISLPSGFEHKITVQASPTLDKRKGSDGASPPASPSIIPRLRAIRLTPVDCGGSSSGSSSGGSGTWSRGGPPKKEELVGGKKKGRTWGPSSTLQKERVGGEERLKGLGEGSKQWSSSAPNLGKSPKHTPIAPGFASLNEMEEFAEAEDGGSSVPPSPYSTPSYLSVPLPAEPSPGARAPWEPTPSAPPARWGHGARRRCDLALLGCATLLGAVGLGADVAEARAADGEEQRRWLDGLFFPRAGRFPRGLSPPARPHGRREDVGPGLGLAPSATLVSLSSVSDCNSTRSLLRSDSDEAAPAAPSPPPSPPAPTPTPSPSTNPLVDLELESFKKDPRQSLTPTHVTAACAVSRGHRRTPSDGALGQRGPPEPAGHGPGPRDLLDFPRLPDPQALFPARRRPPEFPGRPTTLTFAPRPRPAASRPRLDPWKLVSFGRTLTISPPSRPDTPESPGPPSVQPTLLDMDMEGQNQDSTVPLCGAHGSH
# Chain of UniProt Q9BVS4 (whole entry, looked up): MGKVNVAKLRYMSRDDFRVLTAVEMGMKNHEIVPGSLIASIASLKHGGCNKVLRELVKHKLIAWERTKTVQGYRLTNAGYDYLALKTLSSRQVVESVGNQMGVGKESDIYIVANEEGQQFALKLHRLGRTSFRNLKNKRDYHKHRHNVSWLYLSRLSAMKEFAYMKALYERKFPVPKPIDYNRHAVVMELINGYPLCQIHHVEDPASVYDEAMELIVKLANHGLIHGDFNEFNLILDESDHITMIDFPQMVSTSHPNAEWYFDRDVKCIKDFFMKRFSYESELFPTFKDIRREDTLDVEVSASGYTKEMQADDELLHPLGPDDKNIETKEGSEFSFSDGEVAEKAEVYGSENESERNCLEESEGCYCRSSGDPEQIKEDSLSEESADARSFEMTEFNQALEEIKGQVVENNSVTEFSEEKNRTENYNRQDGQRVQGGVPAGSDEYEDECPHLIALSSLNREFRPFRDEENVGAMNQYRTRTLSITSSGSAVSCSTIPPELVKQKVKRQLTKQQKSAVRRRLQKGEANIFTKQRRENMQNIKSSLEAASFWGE
# Chain of UniProt P06241 (whole entry, looked up): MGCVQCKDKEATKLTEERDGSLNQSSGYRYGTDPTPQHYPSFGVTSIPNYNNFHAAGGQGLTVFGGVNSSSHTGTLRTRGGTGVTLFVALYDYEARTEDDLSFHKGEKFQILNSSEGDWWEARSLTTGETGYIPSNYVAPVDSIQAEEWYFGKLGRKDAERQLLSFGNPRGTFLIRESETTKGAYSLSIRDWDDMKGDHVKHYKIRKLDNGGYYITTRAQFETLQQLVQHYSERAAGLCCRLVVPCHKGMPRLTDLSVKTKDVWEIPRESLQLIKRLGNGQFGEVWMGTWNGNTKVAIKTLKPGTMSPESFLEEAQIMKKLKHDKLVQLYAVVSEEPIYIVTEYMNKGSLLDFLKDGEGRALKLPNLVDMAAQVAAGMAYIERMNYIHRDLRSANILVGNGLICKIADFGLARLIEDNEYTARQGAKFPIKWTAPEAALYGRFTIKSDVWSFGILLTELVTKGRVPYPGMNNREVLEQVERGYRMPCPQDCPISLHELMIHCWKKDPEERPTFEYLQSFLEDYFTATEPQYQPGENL
# Chain of UniProt P15735 (whole entry, looked up): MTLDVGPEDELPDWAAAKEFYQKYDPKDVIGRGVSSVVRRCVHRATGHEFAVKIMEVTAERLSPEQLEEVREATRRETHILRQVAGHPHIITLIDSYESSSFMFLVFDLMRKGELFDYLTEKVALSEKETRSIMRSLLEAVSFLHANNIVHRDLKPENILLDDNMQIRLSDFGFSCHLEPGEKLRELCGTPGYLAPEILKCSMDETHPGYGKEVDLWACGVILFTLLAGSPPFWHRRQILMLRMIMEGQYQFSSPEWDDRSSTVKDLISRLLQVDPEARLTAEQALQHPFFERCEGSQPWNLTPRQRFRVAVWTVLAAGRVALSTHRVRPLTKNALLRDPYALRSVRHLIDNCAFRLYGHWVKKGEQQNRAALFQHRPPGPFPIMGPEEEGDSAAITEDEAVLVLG

# Block 1
# Host: mouse
# Sample: microsomes or S9
# Concentration: 2 µM
# Time: 0.5 h
SMILES,remaining compound
O=C(NC1CCOC2(CCS(=O)(=O)C2)C1)c1cccc2cc[nH]c12 (stereo not drawn),72.3%
COc1ccc(-n2nc([S+](C)[O-])c(-n3ccnc3)c2-c2ccc(Cl)c(Cl)c2)cc1 (stereo not drawn),16.7%
CC(C)(C)c1ccc(C(O)CCC(=O)N[C@@H]2C=C[C@H](CO)C2)cc1 (stereo partly drawn),52.3%

# Block 2
# Target: Transcription factor SOX-2, HMG box (Sox2, Mus musculus, UniProt P48432, residues 41-119)
# Chain of UniProt P48432 (41-119, looked up): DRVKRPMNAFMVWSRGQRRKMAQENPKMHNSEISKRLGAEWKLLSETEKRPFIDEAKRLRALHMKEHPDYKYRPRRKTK
# Technique: Spec-seq
# Form: double-stranded DNA, one strand shown
# Sample: in vitro
# Concentration: not given
# Notes: whole probe, mean of replicates
# Relative to: not given
# Reading: lower = stronger binding
# Shared flanks, not repeated: GAGTCGTCTCGTCAGCAC … CCGTAGAGCACTCAGGTC
Oligonucleotide,relative binding energy
CCGTGTT,0.675 ln ratio
CATAATG,-1.5 ln ratio
CATTGAG,-1.2 ln ratio
CATTTGA,-0.247 ln ratio
GCCTGTT,0.59 ln ratio
CATTACC,0.249 ln ratio
CGTAGTT,0.639 ln ratio
CATGTGA,0.433 ln ratio

# Block 3
# Target: Beta-1 adrenergic receptor (ADRB1, Homo sapiens, UniProt P08588)
# Chain of UniProt P08588 (whole entry, looked up): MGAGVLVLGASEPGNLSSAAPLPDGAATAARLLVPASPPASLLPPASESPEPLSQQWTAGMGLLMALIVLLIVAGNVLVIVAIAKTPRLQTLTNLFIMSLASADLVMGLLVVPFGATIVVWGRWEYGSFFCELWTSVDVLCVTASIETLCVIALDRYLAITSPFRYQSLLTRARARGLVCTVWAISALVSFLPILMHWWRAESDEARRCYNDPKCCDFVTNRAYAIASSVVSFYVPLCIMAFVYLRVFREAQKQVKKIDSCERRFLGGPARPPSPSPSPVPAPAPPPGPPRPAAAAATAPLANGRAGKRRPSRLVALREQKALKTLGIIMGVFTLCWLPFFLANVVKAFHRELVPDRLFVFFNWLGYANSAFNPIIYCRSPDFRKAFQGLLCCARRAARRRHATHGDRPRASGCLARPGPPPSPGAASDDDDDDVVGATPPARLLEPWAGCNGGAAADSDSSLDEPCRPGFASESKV
# Action: antagonist
SMILES,IC50 [µM]
OC(COc1ccccc1)CN1CCN(Cc2cnc3ccccc3c2)CC1 (stereo not drawn),≥ 100
Brc1ccccc1-c1noc(-c2c[nH]nc2-c2ccccc2)n1,≥ 100
N#C/C(=C\c1ccc(O)c(O)c1)C(=O)NCCc1ccccc1,≥ 100

# Block 4
# SMILES: CC(=O)C1=C(C)N(c2cccc(C(F)(F)F)c2)C(=O)N[C@@H]1c1ccc(C#N)nc1
# Read-out: cell-free assay
# Technique: competition with immobilised ligand
# Concentration: 1 µM
target,remaining binding
"PIM2 (Homo sapiens, UniProt Q9P1W9)",98.2%
"TBK1 (Homo sapiens, UniProt Q9UHD2)",89.5%
"TAOK2 (Homo sapiens, UniProt Q9UL54)",94.4%
"EPHA6 (Homo sapiens, UniProt Q9UF33)",94.5%
"MAPK10 (Homo sapiens, UniProt P53779)",100%
"RPS6KB1 (Homo sapiens, UniProt P23443)",93.8%
"MAPK7 (Homo sapiens, UniProt Q13164)",100%
"MAP3K10 (Homo sapiens, UniProt Q02779)",92.1%
"Tyrosine-protein kinase ABL1, phosphorylated (ABL1, Homo sapiens, UniProt P00519, F317L)",97.1%
"RIOK2 (Homo sapiens, UniProt Q9BVS4)",98%
"PHKG2 (Homo sapiens, UniProt P15735)",80.8%
"FYN (Homo sapiens, UniProt P06241)",100%

# Single results of other studies
Compound,target,assay,test system,conditions,quantity,value
COc1cc(C(=O)N2CCC(N3CCN(C)CC3)CC2)ccc1Nc1ncc2c(n1)N(C)c1ccccc1C(=O)N2C,ULK3 human,KiNativ profiling,human PBMC,"1 µM, LYS2 site, with: ATP acyl phosphate probe",inhibition,9.2%

# Excerpt of the above (block 4):
target,remaining binding
"EPHA6 (Homo sapiens, UniProt Q9UF33)",94.5%
"MAPK10 (Homo sapiens, UniProt P53779)",100%
"RPS6KB1 (Homo sapiens, UniProt P23443)",93.8%
